{"data": "Assay results from different studies", "note": "Parts stem from different laboratories: compare values within a part only."}
{"data": "Study 1", "target": "RNA binding protein fox-1 homolog 2, RRM domain, GST-SBP tag (RBFOX2, Homo sapiens, UniProt O43251-10, residues 100-194)", "method": "RNA Bind-n-Seq", "molecule type": "RNA", "medium": "in vitro", "concentration": "365 nM", "notes": "natural RNA segment, single round, ends assumed", "relative to": "no-protein control", "direction": "higher = stronger binding", "constant ends, left off below": "GGGAGUUCUACAGUCCGACGAUC … UGGAAUUCUCGGGUGCCAA", "Residues (chain)": "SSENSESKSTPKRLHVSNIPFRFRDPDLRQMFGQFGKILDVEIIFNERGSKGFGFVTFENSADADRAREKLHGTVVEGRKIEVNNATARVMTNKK"}
{"Oligonucleotide": "CAUUCUUAAGCCUAUGCGAGUCCCCUAGAGAGAGGCAUUGUACUGAUAUAUAAAUAUUAUAUAAUAUAUACAUGAGACAUACUGACAGAAUCUGUAAGCUAAUAAAAUGU", "RBNS enrichment (R)": 0.72}
{"Oligonucleotide": "UUCGCUCUACCUCUGACCUCUGGAGAUUUGGCUGCCUCCUUCUCAAGCUCUAAGACUCAAAGAAAUGGAACCUCUGCCCCAAACACUAGAGAAGCAGGAGAACAGACAAU", "RBNS enrichment (R)": 0.373}
{"Oligonucleotide": "UUACCAAAGGAGUCUUCAGCCCUAUAAAAGGAUUCCUCUAUAGUGUAUUUCUCUAGUGUAUUUAGUGUGUCGUCAAAAUUUUGAUUUAUACAGAGCUUUCAAGAACACAC", "RBNS enrichment (R)": 0.309}
{"Oligonucleotide": "AUUUACCAUUCCUACAAAAGAGGCAGAAACUUUGAGCAAUCUAGGUUUUUUUUUUUUUUAAGUUUUUUCUUUCUUCCUCUCCUGAAUACACUCCCCAAAACACCCCUUUC", "RBNS enrichment (R)": 0.503}
{"Oligonucleotide": "CCAGAGAUAUGGACUUUAUUUUUGUUCCCAGGACUGAUGUAGCUUAGUGGCAAGUGUCUCCCUGGCAUGUACUUAGCUGUAGAUUUGAUCCUCAUUGCUGGGACUGGGGA", "RBNS enrichment (R)": 1.01}
{"Oligonucleotide": "AUGGCGUUCUUCUGAAAGAGCCACGUUUGGGUUUUAUUUCUUUGUCACAUGAUUUCUUUUCUGGAUGGGUGCAAAGUAUCACAGGAAGUGUUUUCUCUCUGUCGCCUUGU", "RBNS enrichment (R)": 0.429}
{"Oligonucleotide": "GUCCUUGUCUUUCCCAAUCUUUGUCCCUCCAUCCCCAGUGGCAUCAGGAGAGGAGUAGGUAAUGUUGGCCUUCAGUGGUAGCAGUCUUCUGGGGCAGGGGUCAGCCACUG", "RBNS enrichment (R)": 0.61}
{"Oligonucleotide": "GGACUGGACUCGAAGCUAGAACUGGCAGAAGAGUUCUGGCAUCCACAGCGCAAUGCUGCCACCACCCAGUUUCUUCAUCAGAAGACAAGGGAACGAGAAAACUGCUGUUC", "RBNS enrichment (R)": 0.291}
{"Oligonucleotide": "UAGUAACUUGGAAAAGACCAAAAAAGGGAGUGGAACAAAGGAACCGCCAUUAGACUGAAAAAACAAUGGCCUGAUGGUUGAAGUACAUUUUCAUUUGCAGAAUAUUAAAG", "RBNS enrichment (R)": 0.606}
{"Oligonucleotide": "GAGGCCCUUUAUUAUUGCUGCAGAAAACAAAAGCCUGGCUGAGUUGAUGUUUUACAUUCUCCCUUACUGAAAUCUACAUGACAUGAUGCUUCUUGCUGGGUUUUUGUACA", "RBNS enrichment (R)": 0.65}
{"Oligonucleotide": "ACCCCAGAAACUCCAGCCAGCACCACCGACACAACCAGACCAGCGCCACACCGCACUGAGGACUCCAAGGCCUUCGCGGGACCAUGCCGGCCGGGCUGCCUCGUCUUACU", "RBNS enrichment (R)": 0.76}
{"Oligonucleotide": "AUUUUAUUAUGUAUAUUCAAUUCAAAUAUUCUAAUGUCUAGAAAAAUGAAAACCCUGGAUAUUCUGGUCCUGAGUUGUUCAGAUGAGGGAGAGCCAACCUAUAGUUUAAC", "RBNS enrichment (R)": 0.64}
{"data": "Study 2", "target": "RING finger protein unkempt homolog, zinc fingers 1-6, SBP tag (UNK, Homo sapiens, UniProt Q9C0B0, residues 30-357)", "method": "RNA Bind-n-Seq", "molecule type": "RNA", "medium": "in vitro", "concentration": "100 nM", "notes": "RNA with constant flanks, vertebrate orthologous sites, ends assumed", "relative to": "input RNA pool", "direction": "higher = stronger binding", "constant ends, left off below": "GGGAGUUCUACAGUCCGACGAUC … CAACAGAGGAUUGAGCAUCA", "chain of UniProt Q9C0B0 (30-357, looked up)": "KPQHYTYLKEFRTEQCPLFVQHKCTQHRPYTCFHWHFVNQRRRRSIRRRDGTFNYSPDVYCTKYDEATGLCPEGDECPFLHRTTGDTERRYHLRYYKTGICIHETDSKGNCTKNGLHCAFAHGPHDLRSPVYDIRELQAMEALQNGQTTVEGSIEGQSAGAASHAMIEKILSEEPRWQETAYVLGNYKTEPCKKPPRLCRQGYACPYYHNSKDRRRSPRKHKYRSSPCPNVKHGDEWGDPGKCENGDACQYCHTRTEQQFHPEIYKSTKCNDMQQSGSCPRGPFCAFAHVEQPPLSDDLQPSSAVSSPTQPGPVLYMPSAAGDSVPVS"}
{"Oligonucleotide": "CUGAAGCUUUGUGUUUGGCUGCACCUGCAUAAGCUGCUACAAAUAGAAUAAAGAAUUUCAUAGCCUGUAUCUAUCAUUUAGAUGCAUGGAAAAAAUGGGCUUUGCACACAAUGGGUUUGG", "bound/input enrichment [ratio]": 2.79}
{"Oligonucleotide": "UGCAGGCACAACUGACUGGUUCACAGCAUUCCCUACACAGUUAUUUACCAAGUACAAAUGUAGUUAACUUUCAGGAUACAACCAGGCAGUCAACAUUGUCUUGUAGCCCCAUUGGAGAUG", "bound/input enrichment [ratio]": 0.298}
{"Oligonucleotide": "UUUUAAGGUUUUUUAAUUUAUUUUUCGUUUUCUUUUGGGGGUAAAGUUUGCUCUACCAAAUAGUGAUCGUAACAAACUGAUCUGUUAUGGAUGUUGCUAUAGUGACAUGCAAUUAUAUAU", "bound/input enrichment [ratio]": 0.971}
{"Oligonucleotide": "CCCCGAUUUUAGAUGUGAUAUCUAGGCUCUCAUUCUAGUUUGUUUUUGUCUUUUCUUGUUUAGAUACCAGUCUUUUAAAUUCUUGCAUUUUAGUAAGAAAGCUACCUUUUUAUGGAUGUU", "bound/input enrichment [ratio]": 2.37}
{"Oligonucleotide": "AGGAGGCCUGUCCUGUGGCUGUGUCCAAACACCCCACAGGACUCACUGUCCCAACAAUCCUAAUUGCCUAGAAAUAUCUUUCUCUUACCUGUUAUUUAUCAAUUUUUCCCAGUAUUUUUA", "bound/input enrichment [ratio]": 1.54}
{"Oligonucleotide": "GUCCUACCUGUGCAGAUCUCACAACACUGAAUGCAAAGUAGCAAUGUUCAUAGCCACAGCACGGUAGCUUUAGGGCACUAUUGCCAUGGUUUUAUUCAUGUGCAAGUUUUGAAAAUGUAU", "bound/input enrichment [ratio]": 0.692}
{"Oligonucleotide": "CUACUAUAAACAACUCAGGGCAGUAUUCUCGAUAUCCUUACAGUAACCUUAAUCAGGGAUUAGUUAAUAAUACAGGGAUGAAUCAGAAUUUAGGCCUUACGAAUAACACUCCAAUGAAUC", "bound/input enrichment [ratio]": 0.772}
{"Oligonucleotide": "GUGAGGGCCUACUGACCACUCACUGUUCUGAGUCUGGUAUCUGUAAACACUUUUUGUUCUUAGUCCUUUUCUUGUAUAAUUGAUGUUCUUUAAAAUUGUUAAUGUAAACAGGGCUUCUGU", "bound/input enrichment [ratio]": 0.889}
{"Oligonucleotide": "CCAUUGCACCCUGCUGUAUAAUAAAUAAUCUUAGCAUUUACCAAUUGUUGAUACAAAUGUUAGUCCCUAACCACUUUUUAUAUGUUUUAAAUUUUUGAAAUUCAAGUGUACCUGCCAUAA", "bound/input enrichment [ratio]": 2.84}
{"Oligonucleotide": "UCGGGUGUCCCUGUGGGGUGCUGUCGGCCCCUUAGAGUCGUUUGAUUUGUGACCUUGACAUAAUAGAUAGGCUUGUGGUUUUUUUAAUUUAAAGAUAUUAAGACUUAAUUCACUAAAAUU", "bound/input enrichment [ratio]": 0.609}
{"Oligonucleotide": "AAGCCCCGCUUUUAGAUGUGACAUCUAGGCUUUCAUUCCAGUUUGUUUUGUCUUCUUGUUUAGAUAGCAACCUUUUAAAUUCUUGCAUUUUAGUAAGAAAGCUACCUUUUUAUGGAUGUU", "bound/input enrichment [ratio]": 0.619}
{"data": "Study 3", "target": "Centromere-binding protein 1, full length, N-terminal tag (CBF1, Saccharomyces cerevisiae, UniProt P17106, residues 1-351)", "method": "protein-binding microarray", "molecule type": "double-stranded DNA, one strand shown", "medium": "in vitro", "concentration": "0.8 µM", "notes": "whole 60-bp probe, no competitor", "direction": "higher = stronger binding", "constant ends, left off below": "… GTCTTGATTCGCTTGACGCTGCTG", "chain of UniProt P17106 (whole entry, looked up)": "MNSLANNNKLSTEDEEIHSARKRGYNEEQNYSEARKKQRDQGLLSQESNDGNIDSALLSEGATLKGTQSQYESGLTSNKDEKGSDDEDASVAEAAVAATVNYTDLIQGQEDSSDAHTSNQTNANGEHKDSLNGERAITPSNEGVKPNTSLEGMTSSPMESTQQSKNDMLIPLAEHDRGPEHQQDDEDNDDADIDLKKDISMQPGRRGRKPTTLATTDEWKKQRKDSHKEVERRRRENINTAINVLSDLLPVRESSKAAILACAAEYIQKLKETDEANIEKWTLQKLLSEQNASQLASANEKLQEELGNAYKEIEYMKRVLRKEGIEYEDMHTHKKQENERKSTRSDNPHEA"}
{"Oligonucleotide": "GAAATACTCCCCCCGCGCACGTCAATAGATCCTTAG", "fluorescence intensity": "523 a.u."}
{"Oligonucleotide": "CTACAGAGCAAATATCACGTGCACAAAGAACTATTC", "fluorescence intensity": "11800 a.u."}
{"Oligonucleotide": "GAATGATGAGTATTCAAGGTGACGGAATATTATTAG", "fluorescence intensity": "527 a.u."}
{"Oligonucleotide": "GAAAATTTTGATTACCATCAGCAAATGGATTTTTAG", "fluorescence intensity": "530 a.u."}
{"Oligonucleotide": "TGTACGAAGCTATGCACCGTGACTATAGTAGTTAGG", "fluorescence intensity": "674 a.u."}
{"Oligonucleotide": "CTATCTCAAAACAGTGCACGTGCACCCATGGCATTC", "fluorescence intensity": "13100 a.u."}
{"Oligonucleotide": "CTAGTAAAAGCCGGGAACGTGCGTAACAATTTTTTC", "fluorescence intensity": "654 a.u."}
{"Oligonucleotide": "GAATAAGACAACAGGTGATTAACCTCCAGATGGTAG", "fluorescence intensity": "1500 a.u."}
{"Oligonucleotide": "CTAGCGCTGAACTTTCACGTCAGATATATATACTTC", "fluorescence intensity": "532 a.u."}
{"Oligonucleotide": "GAAGATATCACATACCACGAGATCTGCGCCTCGTAG", "fluorescence intensity": "747 a.u."}
{"Oligonucleotide": "CTATATAGCGTGGATTGCGTGAGATTGTGTGGATTC", "fluorescence intensity": "531 a.u."}
{"Oligonucleotide": "CTATTCCGAGATCCTCAGCTGACAAATAAATGTTTC", "fluorescence intensity": "968 a.u."}
{"Oligonucleotide": "GAACTGACTGATTATGACGTCGGATCCTATGACTAG", "fluorescence intensity": "575 a.u."}
{"Oligonucleotide": "TGTACGAAGCTATAACATGTGCGTATAGTAGTTAGG", "fluorescence intensity": "686 a.u."}
{"Oligonucleotide": "GAAGTTTATTCATGTCACGTGACTATATTTCCATAG", "fluorescence intensity": "54900 a.u."}
{"Oligonucleotide": "GAACAGAAGGGTGATCAGTTGAGGTGGAGAGTTTAG", "fluorescence intensity": "585 a.u."}
{"Oligonucleotide": "CTATCCTCGATACGGCATGCGTATAAAGAGATATTC", "fluorescence intensity": "495 a.u."}
{"Oligonucleotide": "GAAACGAAGCCTTTGCACCTGATATAAAAAGTGTAG", "fluorescence intensity": "1130 a.u."}
{"Oligonucleotide": "GAAAAATGGCAACAGTACATCAGAAGAATATGTTAG", "fluorescence intensity": "514 a.u."}
{"data": "Study 4", "target": "Sal-like protein 4, full length isoform B (SALL4, Homo sapiens, UniProt Q9UJQ4-2, residues 1-616)", "method": "universal PBM", "molecule type": "double-stranded DNA, one strand shown", "medium": "in vitro", "concentration": "not given", "notes": "8-mer, flanks averaged, mean of replicates", "direction": "higher = stronger binding"}
{"Oligonucleotide": "GATACGCC", "E-score": -0.146}
{"Oligonucleotide": "CCTGCCAC", "E-score": -0.226}
{"Oligonucleotide": "TGACAACA", "E-score": 0.145}
{"Oligonucleotide": "CCCGGCTA", "E-score": -0.237}
{"Oligonucleotide": "TCTAGTCA", "E-score": 0.1}
{"Oligonucleotide": "CACTGCCC", "E-score": -0.218}
{"Oligonucleotide": "AAATAGTA", "E-score": 0.316}
{"Oligonucleotide": "CGCTGAAA", "E-score": -0.178}
{"Oligonucleotide": "ACTTAAGC", "E-score": 0.0304}
{"Oligonucleotide": "CATCACGC", "E-score": -0.0949}
{"Oligonucleotide": "GACGTGCC", "E-score": -0.35}
{"Oligonucleotide": "CTATTGCC", "E-score": 0.0179}
{"Oligonucleotide": "GTTCTGCA", "E-score": -0.0395}
{"Oligonucleotide": "AACGGAGT", "E-score": -0.0292}
{"Oligonucleotide": "CCAAGGGG", "E-score": -0.173}
{"Oligonucleotide": "ACTACAGC", "E-score": -0.085}
{"Oligonucleotide": "AGGCTTCA", "E-score": -0.145}
{"note": "Repeated from above (study 1):"}
{"Oligonucleotide": "AUGGCGUUCUUCUGAAAGAGCCACGUUUGGGUUUUAUUUCUUUGUCACAUGAUUUCUUUUCUGGAUGGGUGCAAAGUAUCACAGGAAGUGUUUUCUCUCUGUCGCCUUGU", "RBNS enrichment (R)": 0.429}
{"Oligonucleotide": "GUCCUUGUCUUUCCCAAUCUUUGUCCCUCCAUCCCCAGUGGCAUCAGGAGAGGAGUAGGUAAUGUUGGCCUUCAGUGGUAGCAGUCUUCUGGGGCAGGGGUCAGCCACUG", "RBNS enrichment (R)": 0.61}
{"Oligonucleotide": "GGACUGGACUCGAAGCUAGAACUGGCAGAAGAGUUCUGGCAUCCACAGCGCAAUGCUGCCACCACCCAGUUUCUUCAUCAGAAGACAAGGGAACGAGAAAACUGCUGUUC", "RBNS enrichment (R)": 0.291}
{"Oligonucleotide": "UAGUAACUUGGAAAAGACCAAAAAAGGGAGUGGAACAAAGGAACCGCCAUUAGACUGAAAAAACAAUGGCCUGAUGGUUGAAGUACAUUUUCAUUUGCAGAAUAUUAAAG", "RBNS enrichment (R)": 0.606}
{"Oligonucleotide": "GAGGCCCUUUAUUAUUGCUGCAGAAAACAAAAGCCUGGCUGAGUUGAUGUUUUACAUUCUCCCUUACUGAAAUCUACAUGACAUGAUGCUUCUUGCUGGGUUUUUGUACA", "RBNS enrichment (R)": 0.65}
{"Oligonucleotide": "ACCCCAGAAACUCCAGCCAGCACCACCGACACAACCAGACCAGCGCCACACCGCACUGAGGACUCCAAGGCCUUCGCGGGACCAUGCCGGCCGGGCUGCCUCGUCUUACU", "RBNS enrichment (R)": 0.76}
{"Oligonucleotide": "AUUUUAUUAUGUAUAUUCAAUUCAAAUAUUCUAAUGUCUAGAAAAAUGAAAACCCUGGAUAUUCUGGUCCUGAGUUGUUCAGAUGAGGGAGAGCCAACCUAUAGUUUAAC", "RBNS enrichment (R)": 0.64}
